Measurements pooled from the literature.
Every numbered part comes from another study and shows a few of its results, in no order. Positions count from the first letter of the parent shown.

Series 1
Target: ABI1, truncated, D143A, DHFR fusion (Arabidopsis thaliana)
Technique: DHFR PCA, deep sequencing
Matrix: yeast
Notes: methotrexate growth selection, single substitutions
Together with: (+)-ABA 0.11 µM
Reference: wild-type fitted maximum
Reading: higher = stronger binding
Parent: PYL1, truncated, DHFR fusion (Arabidopsis thaliana); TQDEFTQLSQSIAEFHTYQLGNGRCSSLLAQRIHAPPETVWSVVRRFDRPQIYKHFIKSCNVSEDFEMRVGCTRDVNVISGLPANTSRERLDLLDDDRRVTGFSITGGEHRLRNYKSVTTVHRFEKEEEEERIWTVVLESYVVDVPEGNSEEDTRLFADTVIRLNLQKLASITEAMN; partner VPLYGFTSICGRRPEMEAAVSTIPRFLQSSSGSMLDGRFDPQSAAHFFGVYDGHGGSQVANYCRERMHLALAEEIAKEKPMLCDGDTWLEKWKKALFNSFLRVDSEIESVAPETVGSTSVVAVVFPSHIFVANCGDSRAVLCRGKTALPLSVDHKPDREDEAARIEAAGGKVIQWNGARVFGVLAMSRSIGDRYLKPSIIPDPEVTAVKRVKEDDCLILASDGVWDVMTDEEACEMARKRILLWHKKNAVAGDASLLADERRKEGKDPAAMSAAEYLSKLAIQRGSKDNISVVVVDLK
Substitution | relative binding score [%]
E38V | -1.47
T39A | 25.1
H122P | -2.03
P83G | 57.3
R49I | 3.52
V137C | -7.5
N61W | 20.8
V76F | -0.61
V76P | -1.19
V76M | 3.01
F124P | -4.04
Q7I | 27.8
S11Q | 34.9
V44L | 14
R32E | 31.1
T119F | -6.24
K54I | -1.88
K58H | 13.1

Series 2
Target: RING finger protein unkempt homolog, zinc fingers 1-6, GST-SBP tag (UNK, Homo sapiens, UniProt Q9C0B0, residues 30-357)
Chain of UniProt Q9C0B0 (30-357, looked up): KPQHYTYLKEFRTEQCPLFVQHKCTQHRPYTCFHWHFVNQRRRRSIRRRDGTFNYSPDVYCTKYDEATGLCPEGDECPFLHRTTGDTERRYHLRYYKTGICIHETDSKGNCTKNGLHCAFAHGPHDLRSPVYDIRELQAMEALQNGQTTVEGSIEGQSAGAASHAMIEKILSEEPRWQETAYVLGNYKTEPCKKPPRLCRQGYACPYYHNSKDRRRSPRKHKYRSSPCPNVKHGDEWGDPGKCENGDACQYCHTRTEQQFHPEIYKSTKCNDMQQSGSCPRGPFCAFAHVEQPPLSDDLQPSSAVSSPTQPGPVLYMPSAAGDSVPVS
Technique: RNA Bind-n-Seq
Form: RNA
Matrix: in vitro
Tested at: not given
Notes: RNA with constant flanks, ends assumed
Reference: input RNA pool
Reading: higher = stronger binding
Sequence | bound/input enrichment [ratio]
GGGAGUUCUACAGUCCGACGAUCCAUGCUCUUGCACUUUACAGAACUGAUGAUUACUUAGAUCAACCGUGUUAUGAAACCAUUAACCGAAUUAAACUUUACAGUGAAUCUUUGGCAAGAUAUGGCAAAAGCCCAUACCUUUAUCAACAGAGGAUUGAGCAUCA | 0.228
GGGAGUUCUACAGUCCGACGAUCACAUGUCACGUAGAAGAGACUCUCGGUGAGCAUUGCCUGUGAACUAAUAAUCCAGUGGACAACCGGCUUUGCACCAGGGUGAGGUCCAGACCUCUGCAGCACAGAGCUCCCGAUGGUUGGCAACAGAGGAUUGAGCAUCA | 0.364
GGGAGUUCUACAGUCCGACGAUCAUUGCUAUGGGAUUUCCUGCAGAAAGACUUGAAGGUGUAUACAGGAACAAUAUUGAUGAUGCCGUAAGGUUUUUGGAUUCAAAGCAUAAAAACCAUUACAAGAUAUACAAUCUAUGUGCUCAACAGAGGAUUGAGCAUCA | 0.371
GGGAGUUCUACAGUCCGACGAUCAGGAUGAACCGGACAGAUUCCGAAAUAUAUGAGGAUGCUGUAGAACUUCAGCAGUUUUUUAUCCGAAUUCGUGAUGAACUCUGCAAAAAUGGAGAGAUCCUUCUUUCUCCAGCACUCAGCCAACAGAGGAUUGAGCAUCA | 0.128
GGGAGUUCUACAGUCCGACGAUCCCCACCACAAAAAUUCAGAUCAGGUUGGCAGAUGGAAGUCGUCUCGUACAGAGAUUCAACCGCACACACCGGAUUCUGGAUGUACGAGACUUUAUAGUACGGUCACGUCCUGAAUUUGCGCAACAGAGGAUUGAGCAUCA | 0.174
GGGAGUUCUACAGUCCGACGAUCCUAAAUACCAUUCCAUUGUUUGUGCAGCUGCUUUAUUCUCCCAUUGAAAACAUCCAAAGAGCCGCUGCAGGGGUCCUCUGUGAACUUGCUCAGGACAAGGAAGCUGCAGAAGCUAUUGAACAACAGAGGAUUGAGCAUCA | 0.408
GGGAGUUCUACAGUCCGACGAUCCUGUAAUUUCAAUUUUUUUUUUUUGCUGAAAUACAUUAUAUUGUACGUUUGAGAUAAUUCCCGUACAAAGUAUAAUAAAACUAGAUGUAUAAUAAACCCUUUAAAUCAUUGGUAAGUGUACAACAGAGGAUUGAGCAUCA | 2.52
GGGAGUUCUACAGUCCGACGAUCUUUUCAUUCAACCCCAUGCUGGAUAAAGAAGAAAGAGAGCAAGGCUGGGUGCUGAUCGAUCUCCGUGAAGAAUACACGCGGAUGGGCCUCCCUAAUCAUUACUGGCAGCUCAGCGAUGUGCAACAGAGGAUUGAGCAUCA | 0.118

Series 3
Target: Sal-like protein 4, full length isoform B (SALL4, Homo sapiens, UniProt Q9UJQ4-2, residues 1-616)
Technique: universal PBM
Form: double-stranded DNA, one strand shown
Matrix: in vitro
Tested at: not given
Notes: 8-mer, flanks averaged, mean of replicates
Reading: higher = stronger binding
Target sequence (chain): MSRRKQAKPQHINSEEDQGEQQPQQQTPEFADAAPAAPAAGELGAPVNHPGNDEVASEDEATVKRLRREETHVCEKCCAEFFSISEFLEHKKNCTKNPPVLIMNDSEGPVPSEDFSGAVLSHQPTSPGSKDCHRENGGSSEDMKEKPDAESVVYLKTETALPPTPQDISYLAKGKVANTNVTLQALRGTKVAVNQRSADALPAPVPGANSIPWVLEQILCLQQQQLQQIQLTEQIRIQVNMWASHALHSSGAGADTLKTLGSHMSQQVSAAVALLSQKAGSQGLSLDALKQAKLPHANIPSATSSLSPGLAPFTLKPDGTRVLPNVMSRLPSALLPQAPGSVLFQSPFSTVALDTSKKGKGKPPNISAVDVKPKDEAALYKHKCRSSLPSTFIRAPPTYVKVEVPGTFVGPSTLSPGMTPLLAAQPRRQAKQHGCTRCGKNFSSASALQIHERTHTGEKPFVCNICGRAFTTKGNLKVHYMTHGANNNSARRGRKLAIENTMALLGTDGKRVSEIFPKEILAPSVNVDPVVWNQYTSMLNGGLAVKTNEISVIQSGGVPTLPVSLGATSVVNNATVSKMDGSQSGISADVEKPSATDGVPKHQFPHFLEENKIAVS
Sequence | E-score
ATGCCTCA | 0.0625
GCATCCCA | -0.133
GACTTCGA | -0.0146
ATTTTCGC | 0.122
CGAAGCCG | -0.331
GAAAAGAA | 0.0108
ATCGGGCG | -0.26
CGTCTGAC | -0.204
ATCTGACA | 0.0102
ATTGGAAA | 0.224
CAGGCGGA | -0.149
GACTGGAC | -0.255
AACCATCC | -0.0943
GATACTAC | 0.117
GACCGTGC | -0.279
GACTCCAC | -0.291
AGTTCAAC | 0.0141
CGGGTAAA | 0.0215
ATATCACG | 0.259
CTTCTGTA | 0.14
CGATGGCA | -0.22
TCCACACA | -0.0629
AAGCCTTG | -0.0873
CGCATTAA | 0.264
CGTCTGGA | -0.254

Series 4
Target: CCNE2, cyclin fold, Cln2 fusion (human)
Technique: yeast growth competition, sequencing
Matrix: yeast
Notes: weak parent motif
Reference: not given
Reading: higher = stronger binding
Parent: PKN2 docking peptide (human); DSTVTKLDFDLEP
Substitution | normalised enrichment score
E12A | -0.199
T5A | -0.223
S2A | -0.119
D10A | -0.286
K6A | -0.102
F9A | -0.438
L11A | 0.0483

Series 5
Target: Histone acetyltransferase KAT6A, winged helix 1, GST fusion (KAT6A, Homo sapiens, UniProt Q92794, residues 1-85)
Technique: protein binding microarray
Form: double-stranded DNA, one strand shown
Matrix: in vitro
Tested at: not given
Notes: 8-mer, flanks averaged, mean of 2 arrays, mostly near background
Reference: not given
Reading: higher = stronger binding
Residues (chain): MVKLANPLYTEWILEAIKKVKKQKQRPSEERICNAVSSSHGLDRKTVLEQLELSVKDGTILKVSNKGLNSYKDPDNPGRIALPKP
Sequence | E-score
CGTCAAAC | 0.118
AGTACCGC | 0.341
ACTTGAAA | -0.259
AATAGTCC | -0.123
ACCGCACT | 0.169
CAAGACAG | -0.2
AACGTCCC | -0.0722
CACCTATG | 0.0162
CCCTGCCG | 0.246
CAGTAAAG | -0.0491
TCGCGTAA | 0.292
AAGATCAG | -0.0373
GCACACCC | -0.0276
AGCATCCC | -0.0171
CCCACGGC | 0.341
CTAGAGTC | -0.0283
ACGTGGAA | -0.0683
AAGACGTG | -0.0994
CTGATGGA | 0.0387
AAAGCAGT | -0.15
TATTACAA | -0.0664
TGCTTCCA | -0.264
ACGATTCT | -0.114
CGGTAAAC | 0.243
CCGATTGA | -0.127

Mixed results
Molecule | target | test | test system | conditions | scale | quantity | value
PhoQ, residues 284 288 289 292 302 303 SSYNSA | PhoP, residues 12 14 15 18 19 NQAHL (Escherichia coli, UniProt P23836) | Sort-seq, refers to: YFP reporter | E. coli | PhoQ-PhoP variant library, together with: 10 µM Mg2+ | reference: high Mg2+ state, higher = stronger signaling | fold induction | 1.08

Repeated from above (series 1):
Substitution | relative binding score [%]
Q7I | 27.8
S11Q | 34.9
V44L | 14
R32E | 31.1
T119F | -6.24
K54I | -1.88
K58H | 13.1
